Experimental data from different studies.
Compare with care: the assays were run in different laboratories. “And” joins repeats or separate records; there may be more than shown. ± gives the spread as reported.
SPT15/TOA1/TOA2/SUA7 1-240; 1-286; 1-122; 1-345: SPT15/TOA1/TOA2/SUA7 1-240; 1-286; 1-122; 1-345 (Saccharomyces cerevisiae)
Fibroin-modulator-binding protein-1: Fibroin-modulator-binding protein-1 99-193 (Bombyx mori, UniProt Q5FBS0)
UniProt Q64663, sequence (whole entry, unmodified, looked up): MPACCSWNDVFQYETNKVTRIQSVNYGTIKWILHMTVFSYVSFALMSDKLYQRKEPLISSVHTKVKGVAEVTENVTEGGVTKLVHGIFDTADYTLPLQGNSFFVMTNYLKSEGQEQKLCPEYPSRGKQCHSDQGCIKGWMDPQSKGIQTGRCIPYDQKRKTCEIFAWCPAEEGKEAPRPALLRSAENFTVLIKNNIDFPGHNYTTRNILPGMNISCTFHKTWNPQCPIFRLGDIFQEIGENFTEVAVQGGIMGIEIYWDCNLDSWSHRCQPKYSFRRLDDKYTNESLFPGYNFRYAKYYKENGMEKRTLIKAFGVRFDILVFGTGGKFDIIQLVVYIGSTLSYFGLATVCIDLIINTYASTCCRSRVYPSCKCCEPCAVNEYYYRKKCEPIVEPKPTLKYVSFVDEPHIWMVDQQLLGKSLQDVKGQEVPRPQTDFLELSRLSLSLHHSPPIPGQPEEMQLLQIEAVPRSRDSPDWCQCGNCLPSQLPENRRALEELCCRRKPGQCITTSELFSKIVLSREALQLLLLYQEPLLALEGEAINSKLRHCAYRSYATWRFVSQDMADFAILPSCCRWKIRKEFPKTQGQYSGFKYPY
UniProt P48067, sequence (whole entry, looked up): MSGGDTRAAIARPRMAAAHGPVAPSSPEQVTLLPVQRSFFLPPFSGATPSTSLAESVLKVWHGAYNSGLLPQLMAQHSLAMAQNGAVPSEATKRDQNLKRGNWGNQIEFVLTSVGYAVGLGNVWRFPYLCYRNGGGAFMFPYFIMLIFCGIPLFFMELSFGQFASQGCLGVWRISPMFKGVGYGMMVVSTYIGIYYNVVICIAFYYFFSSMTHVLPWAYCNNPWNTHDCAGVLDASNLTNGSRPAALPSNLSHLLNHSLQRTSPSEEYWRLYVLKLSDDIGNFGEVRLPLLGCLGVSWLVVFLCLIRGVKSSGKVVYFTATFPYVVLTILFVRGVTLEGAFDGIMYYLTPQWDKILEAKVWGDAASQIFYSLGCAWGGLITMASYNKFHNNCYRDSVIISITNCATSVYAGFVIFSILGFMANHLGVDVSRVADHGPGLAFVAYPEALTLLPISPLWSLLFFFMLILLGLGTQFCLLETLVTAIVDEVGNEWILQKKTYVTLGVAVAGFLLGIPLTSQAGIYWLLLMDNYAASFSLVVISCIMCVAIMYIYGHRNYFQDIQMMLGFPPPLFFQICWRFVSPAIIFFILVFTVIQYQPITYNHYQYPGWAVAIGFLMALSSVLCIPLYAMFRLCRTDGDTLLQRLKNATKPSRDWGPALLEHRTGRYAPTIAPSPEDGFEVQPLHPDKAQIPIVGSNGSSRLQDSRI

CTCAGGAATTCCTATAAAGTAATGTGGAGCTCAGTTCAAGTCAATCGGTCC (dsDNA; 5'-amino-C6 primer)
Kd (SPT15/TOA1/TOA2/SUA7 1-240; 1-286; 1-122; 1-345; array; double-stranded DNA, one strand shown; TBP:TFIIA:TFIIB ternary complex): 1.55 ± 0.12 nM

DNA 1 TGGGTGGGTAGGGTGGGTAGGGGAGGAT / DNA 2 ATCCTCCCCTA (DNA; intramolecular parallel G4, 5' overhang, 11-bp duplex)
Kd (REV1 330-833 R704Q (Homo sapiens, UniProt Q9UBZ9); FP; folded DNA; KCl 100 mM): 4.3 ± 0.6 nM

GGGAGAACUUCGACCAGAAGUCCUUAACUUCAGCGUACAUUACGCUACAUCUCCCCAGCCUAUGUGCGCAUACAUGGAUCCUC (ssRNA; 2'-fluoro pyrimidines)
relative binding (integrin alphaV/beta3 31-992/27-718 (Homo sapiens); SPR; RNA; with: MnCl2 1 mM; higher = more binding): 120 RU

FNA / CGLSGLGVA-NH2 ([18F]FNA-labelled, C-amide)
tissue uptake (ex vivo gamma counting; peptide, glioblastoma mouse model, uterus; 60 min post injection, with: 500-fold excess CooP blocking): 0.59 %ID/g

ACGGACGGACGG (dsDNA)
Kd (Fibroin-modulator-binding protein-1; ITC; double-stranded DNA, one strand shown): 26700 nM

DNA 1 CACTGGCCGTCTTACGGTCGCTCTGCTCGACG / DNA 2 CGACCGTAAGACGGCCAGTG (dsDNA; 20 bp, 3' 12 nt overhang)
Kd (RECQL 63-592 Y564A (Homo sapiens, UniProt P46063); fluorescence anisotropy; double-stranded DNA; with: Mg2+ 3 mM): 224 ± 72.5 nM

CGAGCGAGCGAG (dsDNA)
Kd (Fibroin-modulator-binding protein-1; ITC; double-stranded DNA, one strand shown): 7650 ± 753 nM

GGGAGAACUUCGACCAGAAGGAAGACAAGCGCACACAACGGAUGACGGGAGAAACAAUGAUAUGUGCGCAUACAUGGAUCCUC (ssRNA; 2'-fluoro pyrimidines)
relative binding (integrin alphaV/beta3 31-992/27-718 (Homo sapiens); SPR; RNA; with: MnCl2 1 mM; higher = more binding): 27.6 RU

VMRLQSETSV
normalised SPR binding response (human SCRIB PDZ3-4 tandem (MBP fusion); surface plasmon resonance; peptide; concentration not given; higher = stronger binding): 67 normalised RU

AACAAGTACAACACACTCTCAAATAATTATGCGCTTCAAGTCAATCGGTCC (dsDNA; 5'-amino-C6 primer)
Kd (SPT15/TOA1/TOA2/SUA7 1-240; 1-286; 1-122; 1-345; array; double-stranded DNA, one strand shown; TBP:TFIIA:TFIIB ternary complex): 12.7 ± 8.68 nM

GGGAGAACUUCGACCAGAAGGUACUACGCCACAACGAACCCCGGCCUGUACCUUUCCGUAUAUGUGCGCAUACAUGGAUCCUC (ssRNA; 2'-fluoro pyrimidines)
relative binding (integrin alphaV/beta3 31-992/27-718 (Homo sapiens); SPR; RNA; with: MnCl2 1 mM; higher = more binding): 99.7 RU

ATGAATGAATGA (dsDNA)
Kd (Fibroin-modulator-binding protein-1; ITC; double-stranded DNA, one strand shown): 1520 ± 149 nM

GGGAGAACUUCGACCAGAAGUCUCCUAGUCCAUUUUGGCGCACGCGAAUACGGGAGACACUAUGUGCGCAUACAUGGAUCCUC (ssRNA; 2'-fluoro pyrimidines)
relative binding (integrin alphaV/beta3 31-992/27-718 (Homo sapiens); SPR; RNA; with: MnCl2 1 mM; higher = more binding): 156 RU

methyl-β-cyclodextrin
glycine uptake rate (SLC6A9 (Homo sapiens, UniProt P48067); transport activity, [3H]glycine uptake; 3.5 mg/mL, 1 min, with: glycine 900 µM; higher = more transport): 69.4 a.u. and 53.4 a.u. and 52.4 a.u.

GGGAGAACUUCGACCAGAAGAAGGAUACGCAUCUAGCACCCCUGCCUUCCUUCUAAUGUUUAUGUGCGCAUACAUGGAUCCUC (ssRNA; 2'-fluoro pyrimidines)
relative binding (integrin alphaV/beta3 31-992/27-718 (Homo sapiens); SPR; RNA; with: MnCl2 1 mM; higher = more binding): 109 RU

GTCAGTCAGTCA (dsDNA)
Kd (Fibroin-modulator-binding protein-1; ITC; double-stranded DNA, one strand shown): 5780 ± 628 nM

CTTGAAGGGGGGCTATAAAAGGGGGTGGGGGCGCGTCAAGTCAATCGGTCC (dsDNA; 5'-amino-C6 primer)
Kd (SPT15/TOA1/TOA2/SUA7 1-240; 1-286; 1-122; 1-345; array; double-stranded DNA, one strand shown; TBP:TFIIA:TFIIB ternary complex): 1.98 ± 0.2 nM

GGGAGAACUUCGACCAGAAGACAAAUAUGCAACAUGUUACGCCAAAAGUUCCCCGGCCUAUAUGUGCGCAUACAUGGAUCCUC (ssRNA; 2'-fluoro pyrimidines)
relative binding (integrin alphaV/beta3 31-992/27-718 (Homo sapiens); SPR; RNA; with: MnCl2 1 mM; higher = more binding): 62.6 RU

GCCCGCCCGCCC (dsDNA)
Kd (Fibroin-modulator-binding protein-1; ITC; double-stranded DNA, one strand shown): 10500 nM

11-deoxycorticosterone
rate constant k2 (CYP11B2 (human); substrate binding, stopped-flow kinetic modelling; 4-state branched induced-fit model, with: equimolar adrenodoxin): 109 min⁻¹

CTCAGGAATTCCTACAAAGTAATGTGGAGCTCAGTTCAAGTCAATCGGTCC (dsDNA; 5'-amino-C6 primer)
Kd (SPT15/TOA1/TOA2/SUA7 1-240; 1-286; 1-122; 1-345; array; double-stranded DNA, one strand shown; TBP:TFIIA:TFIIB ternary complex): 1.37 ± 0.19 nM

GSGAGPETLV
normalised SPR binding response (human MAGI1-3/6 PDZ construct (MBP fusion); surface plasmon resonance; peptide; concentration not given; higher = stronger binding): 56 normalised RU

GGGAGAACUUCGACCAGAAGAGCAAGUACGCGAAAAUCUUCCCCGCCUCUUGUUGGCAUCUAUGUGCGCAUACAUGGAUCCUC (ssRNA; 2'-fluoro pyrimidines)
relative binding (integrin alphaV/beta3 31-992/27-718 (Homo sapiens); SPR; RNA; with: MnCl2 1 mM; higher = more binding): 73.9 RU

CCGGGTTCCTGTTTCCCGGCCGCGGCCACTCCAGATCAAGTCAATCGGTCC (dsDNA; 5'-amino-C6 primer)
Kd (SPT15/TOA1/TOA2/SUA7 1-240; 1-286; 1-122; 1-345; array; double-stranded DNA, one strand shown; TBP:TFIIA:TFIIB ternary complex): 6.78 ± 3.84 nM

CCAGCCAGCCAG (dsDNA)
Kd (Fibroin-modulator-binding protein-1; ITC; double-stranded DNA, one strand shown): 6510 ± 630 nM

BzATP
normalized current (P2X purinoceptor 7 (P2rx7, Rattus norvegicus, UniProt Q64663, I214A/Q143A/R125A); ion current, agonist, two-electrode voltage clamp; Xenopus laevis oocytes; 30 µM; baseline: 100 µM ATP current): 0.2 and 0.29 and 0.23

Peginesatide
Emax (UT7/EPO; p38 MAPK phosphorylation, agonist, electrochemiluminescence, item: phospho-p38; 10 min; baseline: maximal rHuEPO response): 98 ± 7%

CTCACTCACTCA (dsDNA)
Kd (Fibroin-modulator-binding protein-1; ITC; double-stranded DNA, one strand shown): 3570 ± 463 nM

colistin
MIC (Stenotrophomonas maltophilia; broth microdilution; clinical isolate RKI-No 136/09): 8 µg/mL

Excerpt of the above:
GGGAGAACUUCGACCAGAAGGUACUACGCCACAACGAACCCCGGCCUGUACCUUUCCGUAUAUGUGCGCAUACAUGGAUCCUC (ssRNA; 2'-fluoro pyrimidines)
relative binding (integrin alphaV/beta3 31-992/27-718 (Homo sapiens); SPR; RNA; with: MnCl2 1 mM; higher = more binding): 99.7 RU

ATGAATGAATGA (dsDNA)
Kd (Fibroin-modulator-binding protein-1; ITC; double-stranded DNA, one strand shown): 1520 ± 149 nM
